Published values of several laboratories.
Parts stem from different laboratories: compare values within a part only.
Sequence of UniProt Q5TCX8 (whole entry, looked up): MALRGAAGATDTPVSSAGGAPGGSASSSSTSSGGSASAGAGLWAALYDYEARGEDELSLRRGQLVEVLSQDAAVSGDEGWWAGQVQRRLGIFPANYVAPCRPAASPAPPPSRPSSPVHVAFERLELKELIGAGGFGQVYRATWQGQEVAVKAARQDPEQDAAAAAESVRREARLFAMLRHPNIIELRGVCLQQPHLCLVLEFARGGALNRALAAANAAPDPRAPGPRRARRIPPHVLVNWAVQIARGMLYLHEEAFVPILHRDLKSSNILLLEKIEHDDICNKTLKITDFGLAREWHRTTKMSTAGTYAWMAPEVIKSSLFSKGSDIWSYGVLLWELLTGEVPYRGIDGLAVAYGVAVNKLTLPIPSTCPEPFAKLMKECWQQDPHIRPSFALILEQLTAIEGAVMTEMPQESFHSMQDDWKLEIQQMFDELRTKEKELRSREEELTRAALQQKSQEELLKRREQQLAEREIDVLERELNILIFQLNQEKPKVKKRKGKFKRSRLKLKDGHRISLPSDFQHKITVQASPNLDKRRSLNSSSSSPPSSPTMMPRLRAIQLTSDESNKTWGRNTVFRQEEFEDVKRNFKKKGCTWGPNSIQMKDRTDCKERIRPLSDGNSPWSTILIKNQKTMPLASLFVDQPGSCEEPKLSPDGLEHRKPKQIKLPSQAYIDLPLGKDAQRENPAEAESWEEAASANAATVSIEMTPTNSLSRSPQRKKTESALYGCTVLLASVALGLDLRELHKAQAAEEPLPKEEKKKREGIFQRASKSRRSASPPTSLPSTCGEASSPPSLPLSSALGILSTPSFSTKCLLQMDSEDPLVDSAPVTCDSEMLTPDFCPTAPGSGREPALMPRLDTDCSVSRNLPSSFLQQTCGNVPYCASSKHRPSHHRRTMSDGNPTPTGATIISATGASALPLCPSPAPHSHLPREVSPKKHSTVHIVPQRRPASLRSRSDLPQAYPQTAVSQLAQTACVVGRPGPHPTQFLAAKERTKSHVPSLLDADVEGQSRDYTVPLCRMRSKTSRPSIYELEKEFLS
Sequence of UniProt Q16816 (whole entry, looked up): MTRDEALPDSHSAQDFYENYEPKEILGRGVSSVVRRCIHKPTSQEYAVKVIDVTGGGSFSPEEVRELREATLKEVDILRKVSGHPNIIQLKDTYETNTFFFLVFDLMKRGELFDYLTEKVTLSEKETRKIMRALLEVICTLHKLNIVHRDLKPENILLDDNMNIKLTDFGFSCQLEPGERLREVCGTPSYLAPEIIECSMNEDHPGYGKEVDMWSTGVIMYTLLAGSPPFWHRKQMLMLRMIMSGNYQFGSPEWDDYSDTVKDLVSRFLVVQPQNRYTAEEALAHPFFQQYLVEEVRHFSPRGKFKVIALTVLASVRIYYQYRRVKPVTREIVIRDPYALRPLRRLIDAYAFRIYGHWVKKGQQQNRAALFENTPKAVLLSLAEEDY
Sequence of UniProt O95382 (whole entry, looked up): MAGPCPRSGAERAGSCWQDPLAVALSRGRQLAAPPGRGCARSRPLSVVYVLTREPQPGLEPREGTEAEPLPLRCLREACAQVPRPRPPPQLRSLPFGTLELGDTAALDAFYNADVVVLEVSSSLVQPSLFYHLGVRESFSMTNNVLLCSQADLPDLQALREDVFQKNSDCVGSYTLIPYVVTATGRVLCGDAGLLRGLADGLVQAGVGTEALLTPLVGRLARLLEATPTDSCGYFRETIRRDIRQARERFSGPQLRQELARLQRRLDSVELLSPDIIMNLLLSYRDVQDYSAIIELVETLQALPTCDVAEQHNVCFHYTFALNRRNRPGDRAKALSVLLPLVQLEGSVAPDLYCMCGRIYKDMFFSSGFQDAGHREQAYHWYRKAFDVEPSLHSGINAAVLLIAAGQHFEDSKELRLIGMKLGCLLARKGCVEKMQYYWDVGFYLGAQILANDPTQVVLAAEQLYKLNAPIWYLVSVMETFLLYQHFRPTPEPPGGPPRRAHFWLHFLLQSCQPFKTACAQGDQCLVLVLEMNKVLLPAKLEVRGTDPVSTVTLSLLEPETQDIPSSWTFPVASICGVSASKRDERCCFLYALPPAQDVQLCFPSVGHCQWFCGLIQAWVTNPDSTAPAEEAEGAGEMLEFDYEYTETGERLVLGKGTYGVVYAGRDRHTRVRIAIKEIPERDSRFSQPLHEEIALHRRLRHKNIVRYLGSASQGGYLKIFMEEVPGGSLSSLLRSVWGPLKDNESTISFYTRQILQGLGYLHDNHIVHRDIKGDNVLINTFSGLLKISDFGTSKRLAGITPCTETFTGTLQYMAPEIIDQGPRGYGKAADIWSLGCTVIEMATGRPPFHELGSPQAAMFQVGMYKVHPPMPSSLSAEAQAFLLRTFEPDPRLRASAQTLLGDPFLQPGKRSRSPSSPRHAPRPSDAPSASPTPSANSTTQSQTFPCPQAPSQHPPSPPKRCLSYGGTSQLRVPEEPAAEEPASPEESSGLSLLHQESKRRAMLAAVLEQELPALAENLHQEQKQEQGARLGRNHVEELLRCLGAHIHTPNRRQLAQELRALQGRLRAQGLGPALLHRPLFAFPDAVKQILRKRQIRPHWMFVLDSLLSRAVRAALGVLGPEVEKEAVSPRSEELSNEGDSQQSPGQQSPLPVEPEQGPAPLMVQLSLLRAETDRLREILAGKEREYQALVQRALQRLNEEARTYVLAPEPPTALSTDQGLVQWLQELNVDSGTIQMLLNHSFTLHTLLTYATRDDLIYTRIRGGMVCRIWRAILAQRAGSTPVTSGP
Sequence of UniProt P20794 (whole entry, looked up): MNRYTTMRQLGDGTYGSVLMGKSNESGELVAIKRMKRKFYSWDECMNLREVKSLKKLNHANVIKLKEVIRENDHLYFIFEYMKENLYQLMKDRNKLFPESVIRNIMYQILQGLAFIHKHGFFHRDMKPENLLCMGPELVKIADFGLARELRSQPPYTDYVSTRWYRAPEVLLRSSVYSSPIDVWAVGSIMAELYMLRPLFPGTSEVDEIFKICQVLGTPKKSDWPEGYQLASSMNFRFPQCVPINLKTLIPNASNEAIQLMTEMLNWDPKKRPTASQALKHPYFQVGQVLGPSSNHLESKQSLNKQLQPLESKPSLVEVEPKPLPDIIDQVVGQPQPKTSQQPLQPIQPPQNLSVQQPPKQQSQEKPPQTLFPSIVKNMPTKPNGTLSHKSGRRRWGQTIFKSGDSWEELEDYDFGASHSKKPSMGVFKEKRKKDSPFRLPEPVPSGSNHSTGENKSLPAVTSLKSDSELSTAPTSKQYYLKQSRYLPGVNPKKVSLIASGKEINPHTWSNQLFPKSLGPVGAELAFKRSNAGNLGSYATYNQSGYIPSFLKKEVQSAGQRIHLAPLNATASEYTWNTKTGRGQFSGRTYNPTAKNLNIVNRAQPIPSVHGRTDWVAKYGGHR
Sequence of UniProt Q8N752 (whole entry, looked up): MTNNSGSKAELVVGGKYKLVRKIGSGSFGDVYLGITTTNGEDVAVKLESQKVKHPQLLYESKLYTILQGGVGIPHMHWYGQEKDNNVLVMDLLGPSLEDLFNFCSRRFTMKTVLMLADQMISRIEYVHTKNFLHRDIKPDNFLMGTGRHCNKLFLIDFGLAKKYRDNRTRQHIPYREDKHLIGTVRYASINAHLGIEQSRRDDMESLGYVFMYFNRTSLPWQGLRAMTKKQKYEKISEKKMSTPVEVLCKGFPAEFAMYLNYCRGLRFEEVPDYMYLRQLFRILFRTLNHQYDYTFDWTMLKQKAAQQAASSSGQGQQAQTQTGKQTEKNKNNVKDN
Sequence of UniProt P47898 (whole entry, looked up): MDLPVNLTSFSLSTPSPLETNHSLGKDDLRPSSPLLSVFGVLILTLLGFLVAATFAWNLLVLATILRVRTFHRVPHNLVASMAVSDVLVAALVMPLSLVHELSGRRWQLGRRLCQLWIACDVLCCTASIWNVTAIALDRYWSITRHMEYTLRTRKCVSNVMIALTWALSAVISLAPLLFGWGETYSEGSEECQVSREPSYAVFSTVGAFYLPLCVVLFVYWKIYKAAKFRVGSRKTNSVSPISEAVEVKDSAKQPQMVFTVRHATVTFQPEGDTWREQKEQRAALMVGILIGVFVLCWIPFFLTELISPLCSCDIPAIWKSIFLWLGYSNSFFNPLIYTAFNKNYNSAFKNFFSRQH

Sample 1 — SMILES: C=CCc1ccc(O)c(-c2ccc(O)c(CC=C)c2)c1; observed: chloride current; method: whole-cell voltage clamp
ANO1 del476-501/F627A: Anoctamin-1 (ANO1, Homo sapiens, UniProt Q5XXA6, del476-501/F627A)
Sequence of UniProt Q5XXA6 (whole entry, unmodified, looked up): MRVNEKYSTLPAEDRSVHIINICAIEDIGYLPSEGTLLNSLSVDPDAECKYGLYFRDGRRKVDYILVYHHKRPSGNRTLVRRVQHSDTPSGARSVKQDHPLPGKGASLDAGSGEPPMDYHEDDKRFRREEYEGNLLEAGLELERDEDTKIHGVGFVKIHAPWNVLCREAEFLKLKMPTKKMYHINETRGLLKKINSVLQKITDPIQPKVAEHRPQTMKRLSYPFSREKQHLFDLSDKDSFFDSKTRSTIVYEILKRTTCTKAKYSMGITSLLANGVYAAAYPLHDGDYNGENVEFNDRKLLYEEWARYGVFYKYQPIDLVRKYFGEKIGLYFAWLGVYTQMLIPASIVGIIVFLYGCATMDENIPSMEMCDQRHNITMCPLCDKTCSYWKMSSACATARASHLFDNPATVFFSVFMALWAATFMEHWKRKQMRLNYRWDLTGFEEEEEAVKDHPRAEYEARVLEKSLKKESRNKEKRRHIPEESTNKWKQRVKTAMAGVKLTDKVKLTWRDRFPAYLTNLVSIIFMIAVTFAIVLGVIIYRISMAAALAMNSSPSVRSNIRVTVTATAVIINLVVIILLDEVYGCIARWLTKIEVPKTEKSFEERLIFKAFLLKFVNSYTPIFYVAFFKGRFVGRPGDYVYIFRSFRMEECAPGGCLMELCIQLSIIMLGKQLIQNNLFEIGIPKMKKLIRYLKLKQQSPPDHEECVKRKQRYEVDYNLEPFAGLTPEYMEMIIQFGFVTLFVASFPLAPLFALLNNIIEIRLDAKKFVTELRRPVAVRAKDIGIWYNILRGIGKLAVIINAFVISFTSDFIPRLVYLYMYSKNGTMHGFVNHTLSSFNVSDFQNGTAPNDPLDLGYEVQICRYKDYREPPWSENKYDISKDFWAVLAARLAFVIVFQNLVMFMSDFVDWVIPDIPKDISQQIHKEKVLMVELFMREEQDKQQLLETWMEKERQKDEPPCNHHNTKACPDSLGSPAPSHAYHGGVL
target | assay | setting | IC50
ANO1 del476-501/F627A | – | membrane voltage 60 mV | 6.49 µM
Anoctamin-1 (ANO1, Homo sapiens, UniProt Q5XXA6, del476-501/F803Y) | inhibitor | mutant F777Y | 13.5 µM
ANO1 del476-501/F627A | – | membrane voltage 20 mV | 6.28 µM
Anoctamin-1 (ANO1, Homo sapiens, UniProt Q5XXA6, del476-501/R561A) | – | membrane voltage -20 mV | 4.63 µM
Anoctamin-1 (ANO1, Homo sapiens, UniProt Q5XXA6, del476-501/F807A) | – | membrane voltage -60 mV | 35.3 µM
Anoctamin-1 (ANO1, Homo sapiens, UniProt Q5XXA6, del476-501/F628I) | inhibitor | F602I mutant at 80 mV | 9.17 µM

Sample 2 — observed: enzyme activity; tested at: 5 µM
Compound: O=C(Nc1cnn(-c2csc(C(=O)NC3COC3)c2)c1)Nc1c(F)cccc1Cl
target | assay | scale | remaining activity
CSNK1A1L (Homo sapiens, UniProt Q8N752) | inhibitor | – | 81.1%
MAP3K21 (Homo sapiens, UniProt Q5TCX8) | inhibitor | – | 94.3%
MAP3K6 (Homo sapiens, UniProt O95382) | – | reference: untreated control | 90.7%
PHKG1 (Homo sapiens, UniProt Q16816) | – | reference: untreated control | 90.5%
MAK (Homo sapiens, UniProt P20794) | – | reference: untreated control | 96.4%

Other studies, line by line
Compound | target or system | assay | setting | scale | quantity | result
CN(C)C(=O)/C(C#N)=C/c1ccc(-c2nc3cnc4c(ccn4C)c3n2C2CCCCC2)o1 | sample C colorectal tumour organoid | – | 0.1 µM | reference: DMSO | viability | 108%
Cc1ccc(C(=O)Nc2ccc(CN3CCN(C)CC3)c(C(F)(F)F)c2)cc1C#Cc1cnc2cccnn12 | Receptor-type tyrosine-protein kinase FLT3, ITD (FLT3, Homo sapiens, UniProt P36888) | cell-based | concentration not given | – | FLT3-HSP90 interaction | decreased
CCc1ccccc1C(=O)Nc1n[nH]c2c(C)c(F)c(C3C(C#N)=C(C)N(C)C(C)=C3C#N)cc12 | HTR5A (Homo sapiens, UniProt P47898) | ligand displacement | 10 µM | – | inhibition | 19.9%

Some of these lines once more (other studies, line by line):
Compound | target or system | assay | setting | scale | quantity | result
CCc1ccccc1C(=O)Nc1n[nH]c2c(C)c(F)c(C3C(C#N)=C(C)N(C)C(C)=C3C#N)cc12 | HTR5A (Homo sapiens, UniProt P47898) | ligand displacement | 10 µM | – | inhibition | 19.9%
